Experimental data from different studies.
Every numbered part comes from another study and shows a few of its results, in no order. ± marks the error that the study gave.
UniProt P41143, sequence (whole entry, looked up): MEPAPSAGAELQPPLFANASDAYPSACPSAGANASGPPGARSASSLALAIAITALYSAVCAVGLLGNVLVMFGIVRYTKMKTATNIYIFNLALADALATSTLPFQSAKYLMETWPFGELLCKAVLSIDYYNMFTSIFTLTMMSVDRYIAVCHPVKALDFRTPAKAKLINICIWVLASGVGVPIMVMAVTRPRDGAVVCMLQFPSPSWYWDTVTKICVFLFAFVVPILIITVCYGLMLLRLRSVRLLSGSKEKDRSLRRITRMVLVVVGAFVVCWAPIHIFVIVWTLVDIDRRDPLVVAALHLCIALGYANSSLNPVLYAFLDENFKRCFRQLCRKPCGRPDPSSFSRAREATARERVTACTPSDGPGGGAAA
UniProt P9WI81, sequence (whole entry, looked up): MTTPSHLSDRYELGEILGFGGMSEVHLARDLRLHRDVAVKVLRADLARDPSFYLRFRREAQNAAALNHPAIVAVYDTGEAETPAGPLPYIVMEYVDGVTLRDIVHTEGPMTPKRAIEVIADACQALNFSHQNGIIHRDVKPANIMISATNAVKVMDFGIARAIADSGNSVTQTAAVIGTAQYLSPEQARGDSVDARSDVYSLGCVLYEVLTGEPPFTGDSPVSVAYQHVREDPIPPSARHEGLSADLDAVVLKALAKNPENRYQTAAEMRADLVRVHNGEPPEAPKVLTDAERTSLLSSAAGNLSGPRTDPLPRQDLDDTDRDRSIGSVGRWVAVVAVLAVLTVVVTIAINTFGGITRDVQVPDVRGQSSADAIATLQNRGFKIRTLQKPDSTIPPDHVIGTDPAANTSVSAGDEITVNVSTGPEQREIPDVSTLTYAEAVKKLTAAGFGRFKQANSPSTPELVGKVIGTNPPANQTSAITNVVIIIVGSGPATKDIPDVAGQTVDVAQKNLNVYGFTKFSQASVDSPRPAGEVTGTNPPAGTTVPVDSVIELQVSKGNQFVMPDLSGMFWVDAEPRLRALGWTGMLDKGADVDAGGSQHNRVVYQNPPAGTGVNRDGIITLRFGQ
UniProt Q01959, sequence (whole entry, looked up): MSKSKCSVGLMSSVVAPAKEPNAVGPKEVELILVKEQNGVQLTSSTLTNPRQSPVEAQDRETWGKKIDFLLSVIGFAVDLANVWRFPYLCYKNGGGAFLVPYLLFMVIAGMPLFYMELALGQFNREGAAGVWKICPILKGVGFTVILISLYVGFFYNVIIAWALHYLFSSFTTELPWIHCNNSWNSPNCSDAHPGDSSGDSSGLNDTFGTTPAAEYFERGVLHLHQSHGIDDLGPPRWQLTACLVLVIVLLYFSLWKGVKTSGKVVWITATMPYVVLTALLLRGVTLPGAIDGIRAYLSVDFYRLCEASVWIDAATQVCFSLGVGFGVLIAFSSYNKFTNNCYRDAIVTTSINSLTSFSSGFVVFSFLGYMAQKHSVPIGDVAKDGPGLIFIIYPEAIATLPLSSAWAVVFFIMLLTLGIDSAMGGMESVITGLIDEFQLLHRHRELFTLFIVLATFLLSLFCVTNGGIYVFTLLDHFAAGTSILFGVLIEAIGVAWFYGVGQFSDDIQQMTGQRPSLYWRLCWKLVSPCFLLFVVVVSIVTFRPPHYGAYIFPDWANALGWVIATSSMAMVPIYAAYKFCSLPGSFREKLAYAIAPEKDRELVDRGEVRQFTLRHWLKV

Sample 1 — organism: Vesicular stomatitis virus; observed: pseudovirus infection; tested at: concentration not given; setting: VSV-G control pseudotype; quantity: GFP signal
O.O.O.O.O=C([O-])CC(O)(CC(=O)[O-])C(=O)[O-].[Li+].[Li+].[Li+]: 88%
O=N[O-].[Na+]: 106%
Cl.N[C@@H]1C[C@H]1c1ccccc1: 93.5%
Brc1c(NC2=NCCN2)ccc2nccnc12.O=C(O)C(O)C(O)C(=O)O: 115%
Cl.OC(CCN1CCCCC1)(c1ccccc1)C1CCCCC1 (racemic): 109%

Mixed results
CDPK1: Calcium-dependent protein kinase 1 (CDPK1, Plasmodium falciparum, UniProt P62344)
UniProt P62344, sequence (whole entry, looked up): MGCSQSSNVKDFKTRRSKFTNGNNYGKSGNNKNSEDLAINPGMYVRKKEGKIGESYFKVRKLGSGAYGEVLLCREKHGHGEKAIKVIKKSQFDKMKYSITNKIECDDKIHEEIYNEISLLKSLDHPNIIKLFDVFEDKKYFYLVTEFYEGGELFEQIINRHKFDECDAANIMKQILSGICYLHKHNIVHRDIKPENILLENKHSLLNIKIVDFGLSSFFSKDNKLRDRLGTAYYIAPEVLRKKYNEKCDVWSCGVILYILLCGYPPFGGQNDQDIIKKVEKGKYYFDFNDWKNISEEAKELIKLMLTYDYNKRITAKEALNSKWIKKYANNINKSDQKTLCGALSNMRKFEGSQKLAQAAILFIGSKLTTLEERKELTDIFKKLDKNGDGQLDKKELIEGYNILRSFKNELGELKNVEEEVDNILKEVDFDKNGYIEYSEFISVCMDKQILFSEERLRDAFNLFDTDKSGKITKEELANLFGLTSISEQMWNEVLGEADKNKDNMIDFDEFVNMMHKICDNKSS
CS(=O)(=O)NCC[C@H](NC(=O)c1cncc2c1cnn2-c1ccc(F)cc1)c1ccnc(S(C)(=O)=O)c1  remaining binding (pknB (Mycobacterium tuberculosis, UniProt P9WI81); cell-free assay, competition with immobilised ligand; 1 µM): 93%
Nc1nc2c(ncn2[C@@H]2O[C@H](CO)[C@@H](O)[C@H]2O)c(=S)[nH]1  CC50 (Vero E6; imaging; 4 (unit not given)): 12.7 µM
Cc1noc([C@H]2C[C@@H](c3ccc(C(F)(F)F)cc3)CN(C(=O)N3CCS(=O)(=O)C3)C2)n1  remaining binding (CDPK1; cell-free assay, competition with immobilised ligand; 1 µM): 82%
CCN(CC)C(=O)c1ccc(C2=CC3(CCNCC3)Oc3cccc(O)c32)cc1  Emax (Delta-type opioid receptor, with β-arrestin1 (OPRD1, Homo sapiens, UniProt P41143); human cells): 110 ± 9%
COc1cc(-c2cn(C3CCc4c(F)cccc4N(CC(F)(F)F)C3=O)nn2)ccc1-n1cnc(C)c1 (stereo not drawn)  inhibition (SLC6A3 (Homo sapiens, UniProt Q01959); ligand displacement; 10 µM): 99.7%
CC(C)C[C@@H](C=O)NC(=O)[C@H](CC(C)C)NC(=O)[C@H](CC(C)C)NC(=O)OCc1ccccc1  CC50 (Vero E6; imaging; 4 (unit not given)): 3 µM
Nc1c(C(=O)NCc2ccc(C(=O)NCCCC3CCCCC3)cc2)cnn1-c1ccccc1  remaining binding (CDPK1; cell-free assay, competition with immobilised ligand; 0.1 µM): 86%
